# Experimental data of several laboratories.
# A part holds a random share of what one study measured. “And” joins repeats or separate records; there may be more than shown.
# Chain of UniProt P25098 (whole entry, looked up): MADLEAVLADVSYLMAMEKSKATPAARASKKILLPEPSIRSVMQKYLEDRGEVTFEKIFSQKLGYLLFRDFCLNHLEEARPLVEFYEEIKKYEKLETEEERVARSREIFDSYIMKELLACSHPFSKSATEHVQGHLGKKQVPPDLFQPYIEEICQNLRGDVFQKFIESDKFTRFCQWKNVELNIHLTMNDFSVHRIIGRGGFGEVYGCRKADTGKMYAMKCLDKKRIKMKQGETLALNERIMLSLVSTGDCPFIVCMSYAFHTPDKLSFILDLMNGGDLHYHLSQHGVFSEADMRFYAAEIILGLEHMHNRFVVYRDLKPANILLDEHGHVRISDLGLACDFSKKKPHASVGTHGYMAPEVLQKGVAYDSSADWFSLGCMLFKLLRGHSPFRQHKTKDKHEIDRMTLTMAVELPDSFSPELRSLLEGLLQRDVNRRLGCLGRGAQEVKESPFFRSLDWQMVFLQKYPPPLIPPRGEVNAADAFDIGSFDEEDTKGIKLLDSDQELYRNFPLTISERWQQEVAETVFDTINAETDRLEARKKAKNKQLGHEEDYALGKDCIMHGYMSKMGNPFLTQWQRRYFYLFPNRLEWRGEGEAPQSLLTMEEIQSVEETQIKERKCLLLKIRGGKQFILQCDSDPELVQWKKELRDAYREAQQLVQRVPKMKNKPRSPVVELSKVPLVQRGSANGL

# Series 1
# Target: Calcium/calmodulin-dependent protein kinase type II subunit alpha (CAMK2A, Homo sapiens, UniProt Q9UQM7)
# Chain of UniProt Q9UQM7 (whole entry, looked up): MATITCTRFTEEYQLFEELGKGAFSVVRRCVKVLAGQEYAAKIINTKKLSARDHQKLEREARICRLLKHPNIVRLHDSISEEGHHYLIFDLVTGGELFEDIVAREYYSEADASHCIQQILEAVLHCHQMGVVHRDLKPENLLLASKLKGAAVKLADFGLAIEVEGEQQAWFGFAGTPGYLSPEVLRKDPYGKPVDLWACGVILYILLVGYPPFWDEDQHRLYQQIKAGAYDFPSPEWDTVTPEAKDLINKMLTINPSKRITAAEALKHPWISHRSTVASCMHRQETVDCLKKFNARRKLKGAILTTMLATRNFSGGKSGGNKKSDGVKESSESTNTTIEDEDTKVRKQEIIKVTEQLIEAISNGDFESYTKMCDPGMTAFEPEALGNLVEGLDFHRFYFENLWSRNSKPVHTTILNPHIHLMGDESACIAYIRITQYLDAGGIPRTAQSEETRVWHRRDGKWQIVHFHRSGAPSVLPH
# Read-out: enzyme activity
# Mode: inhibitor
# Tested at: 10 µM
SMILES,inhibition
C=C(CC[C@@H](C(=O)O)[C@H]1[C@H](O)C[C@@]2(C)C3=CC[C@H]4C(C)(C)[C@@H](O)CC[C@]4(C)C3=CC[C@]12C)C(C)C,-1%
CC(C)[C@H](C)[C@@H](O)[C@H](O)[C@@H](C)[C@H]1CC[C@H]2[C@@H]3COC(=O)[C@H]4C[C@H](O)[C@H](O)C[C@]4(C)[C@H]3CC[C@]12C,-15%
COc1cc2c(cc1O)CC[N+](C)(C)[C@@H]2Cc1ccc(O)cc1,-39%
Nc1ccc(S(=O)(=O)Nc2ccccn2)cc1,-2%
CC(=O)c1ccc2ccccc2c1,-40%
Nc1ccn([C@@H]2O[C@H](COP(=O)(O)O)[C@@H](O)[C@H]2O)c(=O)n1,25%
CC(=O)O[C@H]1C[C@@]2(O)[C@@H](OC(=O)c3ccccc3)[C@@H]3[C@]4(OC(C)=O)CO[C@@H]4C[C@H](O)[C@@]3(C)[C@@H](O)[C@H](OC(C)=O)C(=C1C)C2(C)C,-1%
COc1cc2c(cc1OC)[C@H]1[C@@H](C)c3ccc(OC)c(OC)c3CN1CC2,-10%

# Series 2
# SMILES: CC(C)(C(=O)O)[C@H](NC(=O)Cc1cccc(I)c1)c1ccc2oc(=O)[nH]c2c1
# Method: Incucyte 3D growth
# Tested at: 30 µM
# Reading: higher = more growth
cell line,conditions,spheroid area
PC-9,0 h,2.45e+08 a.u. and 2.27e+08 a.u. and 2.42e+08 a.u. and 2.58e+08 a.u. and 2.43e+08 a.u.
A375,444.52 h,1.61e+08 a.u. and 1.77e+08 a.u. and 1.67e+08 a.u. and 1.45e+08 a.u. and 1.8e+08 a.u. and 1.59e+08 a.u.
A375,162 h,9.52e+07 a.u. and 1.03e+08 a.u. and 8.44e+07 a.u. and 9.92e+07 a.u. and 1.16e+08 a.u.
A375,372.52 h,1.61e+08 a.u. and 1.71e+08 a.u. and 1.75e+08 a.u. and 1.8e+08 a.u. and 1.89e+08 a.u. and 1.65e+08 a.u.
A375,234.52 h,1.66e+08 a.u. and 1.7e+08 a.u. and 1.8e+08 a.u. and 1.86e+08 a.u. and 1.58e+08 a.u. and 1.55e+08 a.u.

# Series 3
# Target: DNA polymerase theta, ATPase domain (POLQ, Homo sapiens, UniProt O75417)
# Chain of UniProt O75417 (whole entry, unmodified, looked up): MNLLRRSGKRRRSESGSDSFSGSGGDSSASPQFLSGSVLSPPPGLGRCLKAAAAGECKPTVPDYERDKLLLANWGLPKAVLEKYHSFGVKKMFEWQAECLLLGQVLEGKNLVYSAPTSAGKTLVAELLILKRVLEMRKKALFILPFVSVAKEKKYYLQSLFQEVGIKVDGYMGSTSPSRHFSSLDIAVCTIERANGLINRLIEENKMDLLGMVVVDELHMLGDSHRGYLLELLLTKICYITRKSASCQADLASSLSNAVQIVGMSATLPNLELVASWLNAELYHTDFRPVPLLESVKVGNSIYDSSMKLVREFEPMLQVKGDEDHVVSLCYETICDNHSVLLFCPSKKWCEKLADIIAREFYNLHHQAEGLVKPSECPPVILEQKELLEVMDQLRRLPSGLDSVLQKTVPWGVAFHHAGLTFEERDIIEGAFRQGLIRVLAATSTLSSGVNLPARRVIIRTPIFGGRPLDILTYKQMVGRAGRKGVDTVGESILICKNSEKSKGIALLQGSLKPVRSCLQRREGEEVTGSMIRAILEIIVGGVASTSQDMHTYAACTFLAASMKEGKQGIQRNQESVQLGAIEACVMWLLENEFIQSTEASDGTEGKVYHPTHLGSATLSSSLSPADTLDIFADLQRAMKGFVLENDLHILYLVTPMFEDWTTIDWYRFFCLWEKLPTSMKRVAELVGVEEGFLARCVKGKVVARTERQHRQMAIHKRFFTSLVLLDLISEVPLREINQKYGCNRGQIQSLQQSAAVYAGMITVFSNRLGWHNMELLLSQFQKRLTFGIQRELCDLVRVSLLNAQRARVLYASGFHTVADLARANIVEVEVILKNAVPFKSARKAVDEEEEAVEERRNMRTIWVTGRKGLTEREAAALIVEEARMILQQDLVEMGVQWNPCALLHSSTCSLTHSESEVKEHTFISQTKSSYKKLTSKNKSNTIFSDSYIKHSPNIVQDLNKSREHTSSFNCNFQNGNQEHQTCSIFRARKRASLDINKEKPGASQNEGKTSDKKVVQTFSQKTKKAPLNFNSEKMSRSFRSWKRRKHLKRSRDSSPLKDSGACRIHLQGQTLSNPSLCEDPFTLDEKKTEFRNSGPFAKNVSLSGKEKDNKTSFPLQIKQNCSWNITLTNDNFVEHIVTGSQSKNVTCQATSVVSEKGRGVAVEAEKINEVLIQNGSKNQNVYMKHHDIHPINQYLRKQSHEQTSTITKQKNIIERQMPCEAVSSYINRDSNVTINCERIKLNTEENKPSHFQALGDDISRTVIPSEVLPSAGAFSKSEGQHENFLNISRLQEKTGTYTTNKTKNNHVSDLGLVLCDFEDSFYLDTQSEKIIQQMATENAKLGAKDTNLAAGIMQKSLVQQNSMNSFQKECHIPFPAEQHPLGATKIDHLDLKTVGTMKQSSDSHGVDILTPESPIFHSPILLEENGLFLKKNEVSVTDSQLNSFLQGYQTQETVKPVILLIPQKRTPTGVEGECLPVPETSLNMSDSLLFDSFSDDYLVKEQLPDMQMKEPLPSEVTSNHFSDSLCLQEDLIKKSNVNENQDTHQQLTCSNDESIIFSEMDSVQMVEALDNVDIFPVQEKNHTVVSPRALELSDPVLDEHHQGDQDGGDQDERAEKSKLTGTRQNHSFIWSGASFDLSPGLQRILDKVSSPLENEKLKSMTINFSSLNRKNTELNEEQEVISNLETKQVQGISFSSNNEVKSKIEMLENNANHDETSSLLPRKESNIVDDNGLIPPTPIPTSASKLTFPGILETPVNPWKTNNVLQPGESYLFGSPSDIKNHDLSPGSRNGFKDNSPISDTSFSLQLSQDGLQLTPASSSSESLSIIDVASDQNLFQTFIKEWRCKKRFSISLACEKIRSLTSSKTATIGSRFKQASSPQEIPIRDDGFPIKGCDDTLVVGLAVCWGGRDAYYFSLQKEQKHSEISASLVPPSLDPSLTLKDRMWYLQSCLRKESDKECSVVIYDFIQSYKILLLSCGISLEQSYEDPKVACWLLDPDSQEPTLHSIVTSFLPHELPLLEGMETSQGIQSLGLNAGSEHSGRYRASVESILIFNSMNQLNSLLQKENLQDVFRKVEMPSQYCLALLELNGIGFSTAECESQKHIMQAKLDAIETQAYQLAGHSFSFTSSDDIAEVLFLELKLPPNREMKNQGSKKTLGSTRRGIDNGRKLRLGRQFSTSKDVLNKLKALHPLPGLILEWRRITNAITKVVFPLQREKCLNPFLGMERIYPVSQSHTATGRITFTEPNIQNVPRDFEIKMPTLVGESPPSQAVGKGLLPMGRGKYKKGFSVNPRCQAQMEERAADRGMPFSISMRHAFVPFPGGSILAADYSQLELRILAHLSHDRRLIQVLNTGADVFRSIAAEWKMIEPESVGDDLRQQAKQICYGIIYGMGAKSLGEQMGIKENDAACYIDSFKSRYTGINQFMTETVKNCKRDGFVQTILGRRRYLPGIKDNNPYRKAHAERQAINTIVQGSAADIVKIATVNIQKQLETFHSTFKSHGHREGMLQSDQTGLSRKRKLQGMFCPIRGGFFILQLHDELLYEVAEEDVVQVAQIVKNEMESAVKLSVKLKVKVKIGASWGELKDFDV
# Read-out: enzyme activity
# Mode: inhibitor
# Tested at: 77 µM
# Baseline: untreated
Structure (SMILES),remaining activity [%]
C[C@]12CC[C@@H]3c4ccc(OS(=O)(=O)O)cc4CC[C@H]3[C@@H]1CCC2=O,104
CN(C)CC(=O)Nc1ccc2[nH]c(=O)c3ccccc3c2c1,102
Cc1[nH]c(=O)c(C#N)cc1-c1ccc2nccn2c1,98.9
CN(C)[C@@H]1C(O)=C(C(=O)NCNCCCC[C@H](N)C(=O)O)C(=O)[C@@]2(O)C(O)=C3C(=O)c4c(O)cccc4[C@@](C)(O)[C@H]3C[C@@H]12,101
CCCN(CCc1ccccc1)C1CCc2c(O)cccc2C1 (centres unmarked),101
O[C@@H](CNC[C@H](O)[C@H]1CCc2cc(F)ccc2O1)[C@@H]1CCc2cc(F)ccc2O1,98.1
COc1ccc(COc2cc3oc(=O)c4cc(C(C)O)ccc4c3cc2OC)cc1 (centres unmarked),98.4
O=c1c(-c2ccc(F)cc2)c(-c2ccncc2)[nH]n1-c1ccc(Cl)cc1,110

# Other studies, line by line
Molecule,target,assay,test system,conditions,quantity,value
Cn1cncc1[C@](O)(COc1ccc(C#N)cc1-c1ccc(OC(F)(F)F)cc1)c1ccc(C#N)cc1,"GRK2 (Homo sapiens, UniProt P25098)","cell-free assay, competition with immobilised ligand",,1 µM,remaining binding,74%
WPILGFFPM,"HLA class I histocompatibility antigen, C alpha chain, allele C*04:01 (Homo sapiens, UniProt P10321)",peptide-MHC binding,peptide,concentration not given,binding,inactive

# Some of these lines once more (series 2):
cell line,conditions,spheroid area
PC-9,0 h,2.45e+08 a.u. and 2.27e+08 a.u. and 2.42e+08 a.u. and 2.58e+08 a.u. and 2.43e+08 a.u.
A375,444.52 h,1.61e+08 a.u. and 1.77e+08 a.u. and 1.67e+08 a.u. and 1.45e+08 a.u. and 1.8e+08 a.u. and 1.59e+08 a.u.
